Assay results gathered from unrelated publications.
Each numbered part is a random draw from the data of one study; scales do not carry over between parts.
Sequence of UniProt P11362 (whole entry, looked up): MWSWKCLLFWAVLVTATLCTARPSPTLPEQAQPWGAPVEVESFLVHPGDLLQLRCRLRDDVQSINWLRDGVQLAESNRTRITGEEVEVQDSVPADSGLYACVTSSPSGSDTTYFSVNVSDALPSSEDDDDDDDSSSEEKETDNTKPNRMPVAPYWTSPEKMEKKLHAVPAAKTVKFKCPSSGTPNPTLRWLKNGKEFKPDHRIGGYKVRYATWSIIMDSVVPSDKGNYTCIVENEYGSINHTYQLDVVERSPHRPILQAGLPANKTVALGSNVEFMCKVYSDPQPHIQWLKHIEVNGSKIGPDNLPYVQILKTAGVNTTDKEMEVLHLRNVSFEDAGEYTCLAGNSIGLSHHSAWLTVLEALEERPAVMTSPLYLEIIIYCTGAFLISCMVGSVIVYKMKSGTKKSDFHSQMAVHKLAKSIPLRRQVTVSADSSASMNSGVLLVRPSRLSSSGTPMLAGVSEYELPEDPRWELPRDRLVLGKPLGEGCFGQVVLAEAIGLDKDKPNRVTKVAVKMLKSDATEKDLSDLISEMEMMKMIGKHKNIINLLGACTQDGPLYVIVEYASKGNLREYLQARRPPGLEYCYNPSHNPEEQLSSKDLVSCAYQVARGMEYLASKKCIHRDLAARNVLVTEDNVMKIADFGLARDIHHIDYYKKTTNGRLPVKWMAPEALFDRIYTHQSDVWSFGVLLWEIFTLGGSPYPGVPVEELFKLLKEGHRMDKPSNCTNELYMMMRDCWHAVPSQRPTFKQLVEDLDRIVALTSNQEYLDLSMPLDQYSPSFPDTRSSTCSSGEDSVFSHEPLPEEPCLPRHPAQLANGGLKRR
Sequence of UniProt Q99558 (whole entry, looked up): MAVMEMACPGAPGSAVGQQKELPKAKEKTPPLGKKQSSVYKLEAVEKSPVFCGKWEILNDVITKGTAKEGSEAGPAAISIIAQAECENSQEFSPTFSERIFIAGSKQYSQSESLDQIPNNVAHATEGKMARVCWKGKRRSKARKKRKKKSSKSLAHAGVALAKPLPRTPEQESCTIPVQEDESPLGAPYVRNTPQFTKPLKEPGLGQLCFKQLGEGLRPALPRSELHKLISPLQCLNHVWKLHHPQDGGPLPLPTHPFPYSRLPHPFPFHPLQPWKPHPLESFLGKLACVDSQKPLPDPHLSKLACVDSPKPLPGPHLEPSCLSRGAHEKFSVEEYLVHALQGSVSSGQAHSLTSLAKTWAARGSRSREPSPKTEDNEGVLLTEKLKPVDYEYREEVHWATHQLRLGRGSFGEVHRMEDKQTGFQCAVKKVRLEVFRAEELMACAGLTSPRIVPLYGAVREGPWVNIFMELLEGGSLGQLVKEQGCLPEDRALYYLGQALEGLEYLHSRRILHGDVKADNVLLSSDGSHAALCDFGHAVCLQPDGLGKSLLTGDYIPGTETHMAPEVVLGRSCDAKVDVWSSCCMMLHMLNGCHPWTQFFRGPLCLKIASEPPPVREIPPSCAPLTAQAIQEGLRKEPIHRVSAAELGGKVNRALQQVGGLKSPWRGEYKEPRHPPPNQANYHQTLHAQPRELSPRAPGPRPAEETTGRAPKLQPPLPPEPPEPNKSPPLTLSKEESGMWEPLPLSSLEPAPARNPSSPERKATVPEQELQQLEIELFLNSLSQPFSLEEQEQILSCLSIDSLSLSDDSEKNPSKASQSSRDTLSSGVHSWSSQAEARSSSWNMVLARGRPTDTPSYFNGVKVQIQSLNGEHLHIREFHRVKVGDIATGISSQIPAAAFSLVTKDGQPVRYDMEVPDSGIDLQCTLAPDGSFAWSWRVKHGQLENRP
Sequence of UniProt Q9UM73 (whole entry, unmodified, looked up): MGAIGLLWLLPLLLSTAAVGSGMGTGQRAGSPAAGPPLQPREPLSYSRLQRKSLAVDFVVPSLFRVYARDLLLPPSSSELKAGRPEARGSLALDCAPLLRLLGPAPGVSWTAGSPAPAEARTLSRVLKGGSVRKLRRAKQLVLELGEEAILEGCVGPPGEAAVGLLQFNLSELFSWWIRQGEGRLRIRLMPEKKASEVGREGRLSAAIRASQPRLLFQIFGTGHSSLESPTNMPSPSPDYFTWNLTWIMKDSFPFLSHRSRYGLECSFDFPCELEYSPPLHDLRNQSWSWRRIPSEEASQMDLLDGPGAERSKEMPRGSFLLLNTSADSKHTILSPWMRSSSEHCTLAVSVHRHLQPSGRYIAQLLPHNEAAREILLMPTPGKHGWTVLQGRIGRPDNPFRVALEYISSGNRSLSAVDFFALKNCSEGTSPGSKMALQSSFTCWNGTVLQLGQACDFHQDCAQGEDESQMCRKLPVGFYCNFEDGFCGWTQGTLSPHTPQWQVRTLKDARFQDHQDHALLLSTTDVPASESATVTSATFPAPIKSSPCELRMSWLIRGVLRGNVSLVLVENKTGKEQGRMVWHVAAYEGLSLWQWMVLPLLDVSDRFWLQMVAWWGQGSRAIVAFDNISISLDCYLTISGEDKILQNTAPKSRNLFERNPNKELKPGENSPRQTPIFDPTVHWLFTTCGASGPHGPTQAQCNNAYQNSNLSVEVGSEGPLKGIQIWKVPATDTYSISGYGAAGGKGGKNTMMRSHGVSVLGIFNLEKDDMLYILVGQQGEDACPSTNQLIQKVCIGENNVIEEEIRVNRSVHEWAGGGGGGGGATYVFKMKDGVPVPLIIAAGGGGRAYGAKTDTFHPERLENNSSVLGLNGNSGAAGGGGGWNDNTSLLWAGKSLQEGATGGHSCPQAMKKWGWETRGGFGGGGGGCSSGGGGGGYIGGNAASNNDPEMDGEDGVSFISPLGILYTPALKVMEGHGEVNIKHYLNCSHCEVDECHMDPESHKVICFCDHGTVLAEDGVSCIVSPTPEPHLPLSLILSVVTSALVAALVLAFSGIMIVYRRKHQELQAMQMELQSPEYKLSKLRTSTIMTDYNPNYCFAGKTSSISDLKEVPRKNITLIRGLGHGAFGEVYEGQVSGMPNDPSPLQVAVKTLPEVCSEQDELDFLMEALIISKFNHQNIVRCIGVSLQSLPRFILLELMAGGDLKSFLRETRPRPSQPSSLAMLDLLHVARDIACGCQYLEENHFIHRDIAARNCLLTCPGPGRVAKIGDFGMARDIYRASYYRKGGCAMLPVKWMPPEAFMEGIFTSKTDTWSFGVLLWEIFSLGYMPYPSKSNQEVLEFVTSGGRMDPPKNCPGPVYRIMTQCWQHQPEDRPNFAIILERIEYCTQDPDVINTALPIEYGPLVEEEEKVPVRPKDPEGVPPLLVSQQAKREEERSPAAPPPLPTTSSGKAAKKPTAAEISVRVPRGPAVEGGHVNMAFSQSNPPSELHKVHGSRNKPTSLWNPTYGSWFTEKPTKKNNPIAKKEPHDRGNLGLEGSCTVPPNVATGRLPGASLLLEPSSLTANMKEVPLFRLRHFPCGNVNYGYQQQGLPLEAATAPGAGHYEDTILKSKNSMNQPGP
Sequence of UniProt P78368 (whole entry, looked up): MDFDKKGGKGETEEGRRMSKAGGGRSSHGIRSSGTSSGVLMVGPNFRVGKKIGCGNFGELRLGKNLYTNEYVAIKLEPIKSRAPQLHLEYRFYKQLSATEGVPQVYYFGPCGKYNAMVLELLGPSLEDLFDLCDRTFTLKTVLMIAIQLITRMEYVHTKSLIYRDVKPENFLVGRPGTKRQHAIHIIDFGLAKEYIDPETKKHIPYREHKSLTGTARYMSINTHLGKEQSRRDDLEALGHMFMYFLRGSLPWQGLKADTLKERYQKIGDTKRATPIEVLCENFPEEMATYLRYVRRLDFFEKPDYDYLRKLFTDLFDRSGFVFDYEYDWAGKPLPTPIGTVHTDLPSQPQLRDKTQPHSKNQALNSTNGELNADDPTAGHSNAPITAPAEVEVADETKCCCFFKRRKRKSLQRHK
Sequence of UniProt Q8WTQ7 (whole entry, looked up): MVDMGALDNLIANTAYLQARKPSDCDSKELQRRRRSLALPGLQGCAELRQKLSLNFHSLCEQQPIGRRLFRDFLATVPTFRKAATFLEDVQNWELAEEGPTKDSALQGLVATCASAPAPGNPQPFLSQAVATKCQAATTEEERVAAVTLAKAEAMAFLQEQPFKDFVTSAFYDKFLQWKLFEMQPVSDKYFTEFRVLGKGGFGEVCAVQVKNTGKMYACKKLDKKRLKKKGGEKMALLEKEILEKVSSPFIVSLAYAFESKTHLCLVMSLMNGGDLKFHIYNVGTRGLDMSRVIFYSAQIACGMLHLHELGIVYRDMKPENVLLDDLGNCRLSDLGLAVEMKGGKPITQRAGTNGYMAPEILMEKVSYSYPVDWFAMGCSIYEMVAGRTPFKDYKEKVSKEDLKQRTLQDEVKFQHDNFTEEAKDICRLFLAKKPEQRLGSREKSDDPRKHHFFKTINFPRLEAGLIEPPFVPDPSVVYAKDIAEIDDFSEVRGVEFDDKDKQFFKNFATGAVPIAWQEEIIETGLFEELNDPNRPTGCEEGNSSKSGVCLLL
Sequence of UniProt P30291 (whole entry, looked up): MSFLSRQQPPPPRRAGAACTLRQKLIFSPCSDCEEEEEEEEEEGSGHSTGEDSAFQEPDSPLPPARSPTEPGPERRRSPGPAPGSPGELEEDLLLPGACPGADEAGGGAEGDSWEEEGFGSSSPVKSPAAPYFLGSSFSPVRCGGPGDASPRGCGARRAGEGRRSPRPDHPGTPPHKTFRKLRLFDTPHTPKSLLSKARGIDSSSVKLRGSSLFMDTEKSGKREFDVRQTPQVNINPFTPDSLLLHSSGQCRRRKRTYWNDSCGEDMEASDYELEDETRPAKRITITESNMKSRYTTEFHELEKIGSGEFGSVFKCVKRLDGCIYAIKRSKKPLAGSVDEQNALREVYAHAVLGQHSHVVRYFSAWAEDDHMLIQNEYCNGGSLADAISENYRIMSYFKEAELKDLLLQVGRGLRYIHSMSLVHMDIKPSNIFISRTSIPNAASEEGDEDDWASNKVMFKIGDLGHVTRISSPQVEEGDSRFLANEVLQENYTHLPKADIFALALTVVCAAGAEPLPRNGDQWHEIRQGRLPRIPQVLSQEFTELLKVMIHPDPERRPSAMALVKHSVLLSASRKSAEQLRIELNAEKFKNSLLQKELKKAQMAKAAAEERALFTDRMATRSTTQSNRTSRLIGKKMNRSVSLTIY

Sample 1
SMILES: O=c1nc(-c2ccccn2)sc2ccccc12
Method: competition with immobilised ligand
Tested at: 1 µM
Quantity: remaining binding
ALK tyrosine kinase receptor (ALK, Homo sapiens, UniProt Q9UM73, L1196M); cell-free assay: 93%
Tyrosine-protein kinase ABL1, phosphorylated (ABL1, Homo sapiens, UniProt P00519); binding: 89%
Serine/threonine-protein kinase Chk1 (CHEK1, Homo sapiens, UniProt O14757); binding: 85%
Serine/threonine-protein kinase tousled-like 2 (TLK2, Homo sapiens, UniProt Q86UE8); cell-free assay: 96%
Myosin light chain kinase, smooth muscle (MYLK, Homo sapiens, UniProt Q15746); binding: 67%
Non-receptor tyrosine-protein kinase TNK1 (TNK1, Homo sapiens, UniProt Q13470); binding: 59%
Protein kinase C epsilon type (PRKCE, Homo sapiens, UniProt Q02156); cell-free assay: 100%
Protein kinase C iota type (PRKCI, Homo sapiens, UniProt P41743); cell-free assay: 100%
Tyrosine-protein kinase ABL1, phosphorylated (ABL1, Homo sapiens, UniProt P00519, M351T); binding: 100%
Mast/stem cell growth factor receptor Kit (KIT, Homo sapiens, UniProt P10721, D816V); binding: 100%
Cyclin-dependent kinase 7 (CDK7, Homo sapiens, UniProt P50613); binding: 69%
Serine/threonine-protein kinase 16 (STK16, Homo sapiens, UniProt O75716); binding: 83%
Dual specificity mitogen-activated protein kinase kinase 6 (MAP2K6, Homo sapiens, UniProt P52564); binding: 100%
Cyclin-dependent kinase 3 (CDK3, Homo sapiens, UniProt Q00526); binding: 99%
Phosphatidylinositol 4,5-bisphosphate 3-kinase catalytic subunit alpha isoform (PIK3CA, Homo sapiens, UniProt P42336, I800L); cell-free assay: 84%
Cyclin-dependent kinase-like 5 (CDKL5, Homo sapiens, UniProt O76039); binding: 100%
G protein-coupled receptor kinase 3 (GRK3, Homo sapiens, UniProt P35626); binding: 51%
Tyrosine-protein kinase ABL1, non-phosphorylated (ABL1, Homo sapiens, UniProt P00519, H396P); binding: 100%

Sample 2
Organism: Sarcocystis neurona
Observed: parasite activity
Tested at: 10 µM
Time: 96 h
Quantity: activity class
CCC[C@@H]1C[C@@H](C(=O)N[C@@H]([C@H]2O[C@H](SC)[C@H](O)[C@@H](O)[C@H]2O)[C@@H](C)O)N(C)C1: inactive
C=CCc1ccc(O)c(-c2ccc(O)c(CC=C)c2)c1: inactive
CCCc1c(OCCCCc2nnn[nH]2)ccc(C(C)=O)c1O: inactive
COc1ccc(CC2c3cc(OC)c(OC)cc3CC[N+]2(C)CCC(=O)OCCCCCOC(=O)CC[N+]2(C)CCc3cc(OC)c(OC)cc3C2Cc2ccc(OC)c(OC)c2)cc1OC (stereo not drawn): inactive
CCCOc1ccc(C(=O)OCCN(CC)CC)cc1N: inactive
NC(=O)c1cnccn1: inactive
CCN(CC)CCOc1ccc(C(=C(Cl)c2ccccc2)c2ccccc2)cc1: inactive
C=CC1=C(C(=O)O)N2C(=O)[C@@H](NC(=O)/C(=N\OCC(=O)O)c3csc(N)n3)[C@H]2SC1: inactive

Sample 3
Compound: O=C(CCCc1ccc(-c2ccccc2F)cc1)Nc1ccc(O)cc1
Observed: enzyme activity
Mode: inhibitor
Tested at: 0.5 µM
Baseline: control
Quantity: remaining activity
Mitogen-activated protein kinase 3 (MAPK3, Homo sapiens, UniProt P27361): 132%
Tyrosine-protein kinase ABL2 (ABL2, Homo sapiens, UniProt P42684): 95.3%
Tyrosine-protein kinase FRK (FRK, Homo sapiens, UniProt P42685): 91.9%
Mitogen-activated protein kinase kinase kinase 14 (MAP3K14, Homo sapiens, UniProt Q99558): 99.2%
Wee1-like protein kinase (WEE1, Homo sapiens, UniProt P30291): 83.7%
Serine/threonine-protein kinase TAO2 (TAOK2, Homo sapiens, UniProt Q9UL54): 98.4%
Serine/threonine-protein kinase TBK1 (TBK1, Homo sapiens, UniProt Q9UHD2): 98.2%
Tyrosine-protein kinase Mer (MERTK, Homo sapiens, UniProt Q12866): 98.8%
Tyrosine-protein kinase Lck (LCK, Homo sapiens, UniProt P06239): 95.5%
Macrophage-stimulating protein receptor (MST1R, Homo sapiens, UniProt Q04912): 106%
Serine/threonine-protein kinase ULK3 (ULK3, Homo sapiens, UniProt Q6PHR2): 103%
Rhodopsin kinase GRK7 (GRK7, Homo sapiens, UniProt Q8WTQ7): 109%
Fibroblast growth factor receptor 1 (FGFR1, Homo sapiens, UniProt P11362): 98%
Glycogen synthase kinase-3 beta (GSK3B, Homo sapiens, UniProt P49841): 99.4%
Serine/threonine-protein kinase A-Raf (ARAF, Homo sapiens, UniProt P10398): 104%
Tyrosine-protein kinase JAK3 (JAK3, Homo sapiens, UniProt P52333): 92.1%
Casein kinase I isoform gamma-2 (CSNK1G2, Homo sapiens, UniProt P78368): 99.4%
Angiopoietin-1 receptor (TEK, Homo sapiens, UniProt Q02763): 101%

Single results of other studies
OC[C@@H](O)[C@H](O)[C@H](O)[C@@H](O)CO
inhibition (Calcium/calmodulin-dependent protein kinase type II subunit alpha (CAMK2A, Homo sapiens, UniProt Q9UQM7); enzyme activity, inhibitor; 10 µM): 1%

Repeated from above (sample 3):
Serine/threonine-protein kinase A-Raf (ARAF, Homo sapiens, UniProt P10398): 104%
Tyrosine-protein kinase Mer (MERTK, Homo sapiens, UniProt Q12866): 98.8%
Angiopoietin-1 receptor (TEK, Homo sapiens, UniProt Q02763): 101%
Serine/threonine-protein kinase ULK3 (ULK3, Homo sapiens, UniProt Q6PHR2): 103%
Mitogen-activated protein kinase kinase kinase 14 (MAP3K14, Homo sapiens, UniProt Q99558): 99.2%
Casein kinase I isoform gamma-2 (CSNK1G2, Homo sapiens, UniProt P78368): 99.4%
Tyrosine-protein kinase ABL2 (ABL2, Homo sapiens, UniProt P42684): 95.3%
